# Experimental data from different studies.
# Numbered parts are unrelated; each lists some results of a single study. Changes are numbered by the printed parent chain.

# Set 1
# Target: CCNA1, cyclin fold, Cln2 fusion (human)
# Technique: yeast growth competition, sequencing
# Matrix: yeast
# Notes: weak parent motif
# Relative to: not given
# Reading: higher = stronger binding
# Starting sequence: PKN2 docking peptide (human); VSAVQKLDFSDTM
Substitution,normalised enrichment score
VSAVQKLDFSDGM [T12G],0.526
VSPVQKLDFSDTM [A3P],0.245
VSAVQKLDFGDTM [S10G],0.39
VSAVQKLDFSITM [D11I],-0.218
VSAVQKLDFSRTM [D11R],0.294
VSAVQKLDASDTM [F9A],0.262
VSAVQKLPFSDTM [D8P],0.387
VSARQKLDFSDTM [V4R],0.486
MSAVQKLDFSDTM [V1M],0.00109
VSAVQKLDFSDYM [T12Y],0.152
VSAVQKNDFSDTM [L7N],-0.0244
VSAVQKLDFRDTM [S10R],0.172
VSAVQKLLFSDTM [D8L],0.34
VAAVQKLDFSDTM [S2A],0.469
VSAVQKLIFSDTM [D8I],0.387
VSAVQKLDFSDFM [T12F],0.238
VSAVQKLKFSDTM [D8K],0.345
VQAVQKLDFSDTM [S2Q],0.407
VSFVQKLDFSDTM [A3F],0.0883
VTAVQKLDFSDTM [S2T],0.303
VSAVQKLDFSDSM [T12S],0.371
VSDVQKLDFSDTM [A3D],-0.0455

# Set 2
# Target: Histone acetyltransferase KAT6A, both winged helices, GST fusion (KAT6A, Homo sapiens, UniProt Q92794, residues 1-181)
# Technique: protein binding microarray
# Molecule type: double-stranded DNA, one strand shown
# Matrix: in vitro
# Tested at: not given
# Notes: 8-mer, flanks averaged, mean of 2 arrays, mostly near background
# Relative to: not given
# Reading: higher = stronger binding
# Construct (chain): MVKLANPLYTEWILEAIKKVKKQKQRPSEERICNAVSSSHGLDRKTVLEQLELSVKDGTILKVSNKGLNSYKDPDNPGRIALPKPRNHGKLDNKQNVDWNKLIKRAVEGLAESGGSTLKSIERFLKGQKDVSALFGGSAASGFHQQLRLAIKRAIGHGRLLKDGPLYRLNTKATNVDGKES
Oligonucleotide,E-score
GCTGCGAA,-0.00158
CAGGCATC,-0.252
AGAAAGTG,-0.197
AAGGGAGT,-0.255
AAGGCCCT,-0.0501
AGAAATCT,-0.0809
CTTCGTCA,-0.117
CAGGAAGC,-0.132
GAGACTAC,-0.0381
AGCCGACA,0.0699
CTTTCTCA,0.0072
GAGAGGAC,-0.0387
GCTCTGGA,-0.0153
TAACAGTA,-0.0794
CCAGGGGA,-0.215
CGGCCGGC,0.344
AGCGAGTC,0.0356
AGGAGGGC,-0.195
AACTTGTG,-0.132
AGTAGGAG,-0.248
AGGGAGCG,0.104
ACCGTATA,0.0733
CAAAGGGA,-0.0843
GATCCACC,-0.0282
CTGCATGA,-0.166

# Set 3
# Target: Interferon regulatory factor 7, full length, phosphomimetic (IRF7, Homo sapiens, UniProt Q92985, residues 1-503, S101K/S471D/S472D/S475D/S476D/S477D/S483D/S484D/S487D)
# Technique: protein-binding microarray
# Molecule type: double-stranded DNA, one strand shown
# Matrix: in vitro
# Tested at: 250 nM
# Notes: 60-bp whole probe
# Together with: salmon DNA 0.4 mg/ml
# Relative to: random background probes
# Reading: higher = stronger binding
# Shared flanks, not repeated: GCCTAGCAC … GTCTTGATTCGCTTGACGCTGCTG
# Target sequence (chain): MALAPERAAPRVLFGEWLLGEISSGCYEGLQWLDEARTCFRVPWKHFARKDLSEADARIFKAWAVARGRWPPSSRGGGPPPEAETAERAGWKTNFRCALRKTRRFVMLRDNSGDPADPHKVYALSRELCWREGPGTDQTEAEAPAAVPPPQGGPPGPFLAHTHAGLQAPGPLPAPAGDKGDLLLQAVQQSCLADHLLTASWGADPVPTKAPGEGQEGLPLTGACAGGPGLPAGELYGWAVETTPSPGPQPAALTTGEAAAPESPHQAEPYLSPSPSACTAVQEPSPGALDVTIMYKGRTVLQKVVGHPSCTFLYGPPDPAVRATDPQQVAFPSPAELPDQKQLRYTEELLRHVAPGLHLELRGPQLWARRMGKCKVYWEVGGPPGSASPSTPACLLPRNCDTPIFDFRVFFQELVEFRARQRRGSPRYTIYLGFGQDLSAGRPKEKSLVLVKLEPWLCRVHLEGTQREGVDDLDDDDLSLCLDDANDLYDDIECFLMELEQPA
Oligonucleotide,log fluorescence [z-score]
GCCGATATCAGTTTCGAGACGTGCTAG,3.92
ATAGGTTTCGGGTTTCGGTTAGTGCTA,12.7
TGAAGTTTTAATAACACAGAGTGCTAG,-0.356
TTAGGTTTCGGGACTGGGTCAGTGCTA,3.72
TCACATTTAATTATATGACTGTGCTAG,0.838
TAAGGACTGGGACTGGGTTAGTGCTAG,-0.0278
TTAGATATCAGACTGGATTCGTGCTAG,0.0798
TTAGGTTCCGGTTTCGCTTAGTGCTAG,9.36
GACGGTCTCATACTGCTGACGTGCTAG,0.0296
GTATATATGTGTATATATAAGTGCTAG,0.36
GACGATTTCAGTTTCGACACGTGCTAG,3.53
TCATTCCTGATCTCTGGTCTTGTGCTA,0.92
TCACTTATTGCTTCCTCACTGTGCTAG,0.709
GACGGTATCCTTATGCTGACGTGCTAG,-0.121
TTAGGACTGCTGCTCCTTTAGTGCTAG,-0.553
TCATGCTTGGGTCTGGGACTGTGCTAG,-0.587
TCATCTTTCCTCACCATACTGTGCTAG,1.97
GACGGTTTCCTACTGCCGACGTGCTAG,1.79
AATATTATAACACTCTTCTTGTGCTAG,0.783
GGGGTTAGGGTCATTCATTCGTGCTAG,-0.506
TTACGACTGGGTATCGGTTAGTGCTAG,0.426
TTAGGTTTCGTTTCCCTTTAGTGCTAG,13.7
GGTCTTCTGGACTGTTTGGTCGTGCTA,-0.244

# Set 4
# Target: Centromere-binding protein 1, full length, His-tagged (CBF1, Saccharomyces cerevisiae, UniProt P17106, residues 1-351)
# UniProt P17106, sequence (whole entry, looked up): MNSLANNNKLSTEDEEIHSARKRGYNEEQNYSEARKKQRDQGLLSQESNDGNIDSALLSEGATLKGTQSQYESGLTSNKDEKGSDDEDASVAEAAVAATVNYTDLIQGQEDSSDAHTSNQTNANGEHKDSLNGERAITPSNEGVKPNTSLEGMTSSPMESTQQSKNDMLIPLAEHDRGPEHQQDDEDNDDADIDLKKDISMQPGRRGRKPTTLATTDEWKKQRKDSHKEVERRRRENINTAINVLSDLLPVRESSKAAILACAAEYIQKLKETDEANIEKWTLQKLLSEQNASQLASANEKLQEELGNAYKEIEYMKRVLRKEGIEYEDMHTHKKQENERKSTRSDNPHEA
# Technique: competition protein-binding microarray
# Molecule type: double-stranded DNA, one strand shown
# Matrix: in vitro
# Tested at: 2 µM
# Notes: whole 60-bp probe, lowest competitor level
# Together with: Pho4 competitor, 0.05 µM
# Reading: higher = stronger binding
# Shared flanks, not repeated: … GTCTTGATTCGCTTGACGCTGCTG
Oligonucleotide,fluorescence intensity
ACCCCCGCCCTCAAAGCCGTGACTCGATAACGACTT,133 a.u.
AGACCCTTGTCGCGTCAGGTGATTGTTGTGGTACTT,899 a.u.
CTTGGAGCAAGCCTACACGTGTGAATATTCTACGGC,641 a.u.
TTGTTCGAAAAAAATAGCGTGCTTTTTGGCCAGAAA,86.4 a.u.
ATACGGCAGCAGCCTTTCGTGCTTTCCGCCTATTTT,60 a.u.
AAAGCGGTAATTTGATCAGTGGGTGCAGATATCTAT,104 a.u.
CAATAGCAGCGGCGGCATGATCTTGAGTCGAATAGA,74.5 a.u.
GAAACTCATAGAGATGACGTGCCAGTTGGTTACGCC,64.1 a.u.
TTGATATGTTTATGTAATAATATTTACCACCGCCAC,92.3 a.u.
AGTTATCTAAGATTCGTCGTGCTTTAAGAGACTTGT,62.6 a.u.
TAAAAAATTTTCGGCCACGTAGTTGTATACTTTTGT,88.6 a.u.
AAGGCCATAAAAAGAACCGTGACGGGGCCAAACAGA,104 a.u.
TTTTCCGCGCGAAAGCACGTTACCCGGACCCCGTCT,127 a.u.
CAGCGGCTTTCTTTTCACGGGCTTCTCTTTCAGCTT,86.9 a.u.
CGGGGTTAAGTTTTTCACGTGACCTGCTTGCAGCAG,10000 a.u.
GTCTTGTCTCATTTTCACGTGTGTTTCCCCACTTCA,605 a.u.
GTACCAAGACATCCGCACGTGGAAGATGACGCCTGC,661 a.u.
ATACGAACCATCCATCACGTGCAAAGACAAACCCTA,4560 a.u.
TTTTCAAGGTCTAGAAGCGTGCCGATATCATTCTGA,76.2 a.u.
CTTTCCCGATCTTGCAAAGTGGGTGTAGCACATTTG,80.2 a.u.
CTAACGAAGGTTTTTCACGTGAATTACAAGCCAAGT,888 a.u.
AATTCACTTGATTCTCATGTGAGTACATCAGAAAAA,105 a.u.
CAGTACATTGAAAAGCACGTGACGGAACACCAACTT,6270 a.u.
TCGTCCCGTACCGACCACGTGTTTTCCACCTGTAAT,1590 a.u.

# Mixed results
Substance,target,assay,system,conditions,how to read,measurement,value
"PhoQ, residues 284 288 289 292 302 303 GTAMQF","PhoP, residues 12 14 15 18 19 IFFTR (Escherichia coli, UniProt P23836)","Sort-seq, refers to: YFP reporter",E. coli,"PhoQ-PhoP variant library, together with: 10 µM Mg2+","relative to: high Mg2+ state, higher = stronger signaling",fold induction,24.2

# Repeated from above (set 1):
Substitution,normalised enrichment score
VSAVQKLPFSDTM [D8P],0.387
VSARQKLDFSDTM [V4R],0.486
MSAVQKLDFSDTM [V1M],0.00109
VSAVQKLDFSDYM [T12Y],0.152
VSAVQKNDFSDTM [L7N],-0.0244
VSAVQKLDFRDTM [S10R],0.172
